Results collected from several papers.
± marks the error that the study gave.

N=C(N)NCCC[C@H](NC(=O)[C@H](CCCNC(=N)N)NC(=O)[C@H](CCCNC(=N)N)NC(=O)[C@H](CCC(N)=O)NC(=O)[C@H](CCCNC(=N)N)NC(=O)[C@H](CCCNC(=N)N)NC(=O)[C@H](CCCCN)NC(=O)[C@H](CCCCN)NC(=O)[C@H](CCCNC(=N)N)NC(=O)CNC(=O)[C@H](Cc1ccc(O)cc1)NC(=O)[C@H](Cc1ccccc1)NC(=O)[C@H](Cc1ccccc1)NC(=O)[C@H](Cc1ccccc1)NC(=O)OCC1c2ccccc2-c2ccccc21)C(=O)O  health score (C57BL/6 mice; intraperitoneal, 5 mg/kg, 6 h; direction not given): 5
CC(C)C[C@H](NC(=O)[C@H](CC(C)C)NC(=O)[C@H](CCCCN)NC(=O)[C@H](Cc1ccccc1)NC(=O)[C@@H](NC(=O)[C@H](CCCNC(=N)N)NC(=O)[C@@H](N)CCCCN)C(C)C)C(=O)N[C@@H](CCCCN)C(=O)N[C@@H](CCCNC(=N)N)C(=O)N[C@@H](Cc1ccc(O)cc1)C(=O)N[C@@H](Cc1c[nH]c2ccccc12)C(=O)N[C@@H](CCCNC(=N)N)C(=O)N[C@@H](CCC(N)=O)C(=O)N[C@@H](CC(C)C)C(=O)N[C@@H](CCCCN)C(=O)N[C@@H](CCCCN)C(=O)N1CCC[C@H]1C(=O)N[C@H](C(=O)N[C@@H](CCCNC(=N)N)C(=O)NCCOCCOCC(=O)O)C(C)C  haemolysis (mouse erythrocytes; up to 128 µM): < 5%
C=CC(=O)Nc1cccc(Cn2ncc3cnc(Nc4cnn(CCOC)c4)nc32)c1  blood MPV (female Sprague-Dawley rat; oral, 180 mg/kg/day, day 28, 28-day subacute toxicity): 5.84 ± 0.29 fL
N=C(N)NCCC[C@@H](NC(=O)[C@H](N)Cc1c[nH]c2ccccc12)C(=O)N[C@H](CCCCN)C(=O)N[C@H](Cc1c[nH]c2ccccc12)C(=O)N[C@H](CCCNC(=N)N)C(=O)N[C@H](CCCCN)C(=O)N[C@H](Cc1c[nH]c2ccccc12)C(=O)N[C@H](CCCNC(=N)N)C(=O)N[C@H](CCCCN)C(=O)N[C@H](Cc1c[nH]c2ccccc12)C(=O)N[C@H](CCCNC(=N)N)C(=O)N[C@H](CCCCN)C(N)=O  survival (mouse; intraperitoneal, 30 mg/kg single dose, day 5): 100%
CN1Cc2cc(Cl)ccc2-n2c(nnc2C2CCN(c3cccc([18F])n3)CC2)C1  tissue uptake (C57BL/6 mouse male, pancreas; intravenous, 3.7 MBq, 1 min): 6.71 ± 2.91 %ID/g
O=C(Nc1cccs1)c1cccnc1  plasma clearance time (mouse, plasma; intravenous, 5 mg/kg): ≤ 90 min
O=C1NC2(CC2)COc2ncc(F)cc2[C@H]2COCCN2c2ccn3ncc1c3n2  basophil percentage (Sprague-Dawley rats, male, blood; oral, 2.5 mg/kg/day, end of recovery, 4-week subacute toxicity): 0.08 ± 0.04%
N#[11C]c1ccc(-c2csc(NN=C3CCCC3)n2)cc1  radioactivity uptake (C57BL/6 mice, male, liver; intravenous, 3 MBq, 30 min): 9.24 ± 1.2 %ID/g
CSCC[C@H](N)C(=O)N[C@@H](C)C(=O)N[C@@H](CCCNC(=N)N)C(=O)N[C@@H](CCCNC(=N)N)C(=O)N[C@@H](CC(=O)O)C(=O)N[C@@H](CCCCN)C(=O)N[C@H](C(=O)N[C@@H](CC(=O)O)C(=O)N[C@@H](Cc1ccccc1)C(=O)N[C@@H](C)C(=O)N[C@@H](CCCNC(=N)N)C(=O)N[C@@H](CCCNC(=N)N)C(=O)N[C@@H](CCCNC(=N)N)C(=O)N[C@@H](CCCNC(=N)N)C(=O)NCCCCCC(=O)NCCCCC(NC(=O)CCCCCNC(=O)[C@H](CCCNC(=N)N)NC(=O)[C@H](CCCNC(=N)N)NC(=O)[C@H](CCCNC(=N)N)NC(=O)[C@H](CCCNC(=N)N)NC(=O)[C@H](C)NC(=O)[C@H](Cc1ccccc1)NC(=O)[C@H](CC(=O)O)NC(=O)[C@@H](NC(=O)[C@H](CCCCN)NC(=O)[C@H](CC(=O)O)NC(=O)[C@H](CCCNC(=N)N)NC(=O)[C@H](CCCNC(=N)N)NC(=O)[C@H](C)NC(=O)[C@@H](N)CCSC)[C@@H](C)O)C(=O)NCCCCC(NC(=O)C(CCCCNC(=O)CCCCCNC(=O)[C@H](CCCNC(=N)N)NC(=O)[C@H](CCCNC(=N)N)NC(=O)[C@H](CCCNC(=N)N)NC(=O)[C@H](CCCNC(=N)N)NC(=O)[C@H](C)NC(=O)[C@H](Cc1ccccc1)NC(=O)[C@H](CC(=O)O)NC(=O)[C@@H](NC(=O)[C@H](CCCCN)NC(=O)[C@H](CC(=O)O)NC(=O)[C@H](CCCNC(=N)N)NC(=O)[C@H](CCCNC(=N)N)NC(=O)[C@H](C)NC(=O)[C@@H](N)CCSC)[C@@H](C)O)NC(=O)CCCCCNC(=O)[C@H](CCCNC(=N)N)NC(=O)[C@H](CCCNC(=N)N)NC(=O)[C@H](CCCNC(=N)N)NC(=O)[C@H](CCCNC(=N)N)NC(=O)[C@H](C)NC(=O)[C@H](Cc1ccccc1)NC(=O)[C@H](CC(=O)O)NC(=O)[C@@H](NC(=O)[C@H](CCCCN)NC(=O)[C@H](CC(=O)O)NC(=O)[C@H](CCCNC(=N)N)NC(=O)[C@H](CCCNC(=N)N)NC(=O)[C@H](C)NC(=O)[C@@H](N)CCSC)[C@@H](C)O)C(N)=O)[C@@H](C)O (stereo partly shown)  mean tissue distribution (C57BL/6 mouse female, pancreas; dose not given, 6 h; reference: total): 0.94%
CC(=O)NCCCC[C@@H]1NC(=O)[C@H](Cc2c[nH]c3c(C)cccc23)NC(=O)[C@H]([C@@H](C)O)NC(=O)[C@H](CC(N)=O)NC(=O)[C@@H](NC(C)=O)C(C)(C)SSC(C)(C)[C@@H](C(=O)N[C@@H](Cc2ccc(OCCN)cc2)C(=O)N[C@@H](Cc2ccc3ccccc3c2)C(=O)NC2(C(=O)N[C@@H](CCC(=O)O)C(=O)N[C@@H](CC(N)=O)C(=O)N[C@@H](Cc3cccnc3)C(=O)N(C)CC(N)=O)CCOCC2)NC1=O  tissue to plasma ratio (cynomolgus monkey, cecum; intravenous, 1 mg/kg): 55%
CCCCCCCCCCCCCCCC(=O)N[C@@H](CCC(=O)NCCOCCOCCC(=O)NCCOCCOCCC(=O)NCCCC[C@H](NC(=O)[C@H](CC(=O)O)NC(=O)[C@H](CC(C)C)NC(=O)[C@H](Cc1ccc(O)cc1)NC(=O)[C@H](CCCCN)NC(=O)[C@H](CO)NC(=O)[C@H](Cc1ccc(O)cc1)NC(=O)[C@H](CC(=O)O)NC(=O)[C@H](CO)NC(=O)[C@@H](NC(=O)[C@H](Cc1ccccc1)NC(=O)[C@@H](NC(=O)CNC(=O)[C@H](CCC(N)=O)NC(=O)[C@@H](CO)NC(=O)[C@@H](N)Cc1c[nH]cn1)[C@@H](C)O)[C@@H](C)O)C(=O)N[C@@H](CCCNC(=N)N)C(=O)N[C@@H](CCCNC(=N)N)C(=O)N[C@@H](C)C(=O)N[C@@H](CCC(N)=O)C(=O)N[C@@H](CC(=O)O)C(=O)N[C@@H](Cc1ccccc1)C(=O)N[C@H](C(=O)N[C@@H](CCC(N)=O)C(=O)N[C@@H](Cc1c[nH]c2ccccc12)C(=O)N[C@@H](CC(C)C)C(=O)N[C@@H](CC(C)C)C(=O)N[C@@H](CC(N)=O)C(=O)N[C@H](C(=O)NCC(=O)NCC(=O)N1CCC[C@H]1C(=O)N[C@@H](CO)C(=O)N[C@@H](CO)C(=O)NCC(=O)N[C@@H](C)C(=O)N1CCC[C@H]1C(=O)N1CCC[C@H]1C(=O)N1CCC[C@H]1C(=O)N[C@@H](CO)C(N)=O)[C@@H](C)O)C(C)C)C(=O)O  total cholesterol (rhesus monkey, female; subcutaneous, 20 µg/kg once daily, 28 days): 3.02 ± 0.45 mmol/L
CC[C@H](C)[C@H](NC(=O)[C@H](CCCCN)NC(=O)CNC(=O)[C@H](CC(C)C)NC(=O)[C@H](Cc1ccccc1)NC(=O)[C@H](CCCCN)NC(=O)[C@H](CO)NC(=O)[C@H](Cc1ccccc1)NC(=O)[C@H](Cc1c[nH]c2ccccc12)NC(=O)[C@H](CCC(N)=O)NC(=O)[C@@H](NC(=O)[C@H](Cc1ccccc1)NC(=O)CCCCCNC(=O)CN1CCN(CC(=O)O)CCN(CC(=O)O)CCN(CC(=O)O)CC1)C(C)C)C(=O)N[C@@H](CCC(=O)O)C(=O)N1CCC[C@H]1C(=O)N[C@@H](CC(=O)O)C(=O)N[C@H](C(=O)N[C@@H](CO)C(=O)N[C@@H](CCC(N)=O)C(=O)N[C@H](C(=O)N[C@@H](CCC(N)=O)C(=O)N[C@@H](CC(=O)O)C(=O)N1CCC[C@H]1C(=O)N[C@@H](CC(N)=O)C(=O)N[C@@H](CC(=O)O)C(=O)N[C@@H](CCC(N)=O)C(=O)N[C@@H](Cc1ccc(O)cc1)C(=O)N[C@@H](CCC(=O)O)C(=O)N1CCC[C@H]1C(=O)N[C@@H](Cc1ccccc1)C(=O)O)C(C)C)C(C)C [copper-64 labelled]  tissue uptake (C57BL/6 mice, male, tumour-free, kidneys; 24 h): 14.6 ± 3.3 %ID/g
[2H]C([2H])([18F])[C@]([2H])(N)C(=O)O  radiochemical purity (radio-HPLC; saline formulation; up to 3 h): > 98%

Excerpt of the above:
CCCCCCCCCCCCCCCC(=O)N[C@@H](CCC(=O)NCCOCCOCCC(=O)NCCOCCOCCC(=O)NCCCC[C@H](NC(=O)[C@H](CC(=O)O)NC(=O)[C@H](CC(C)C)NC(=O)[C@H](Cc1ccc(O)cc1)NC(=O)[C@H](CCCCN)NC(=O)[C@H](CO)NC(=O)[C@H](Cc1ccc(O)cc1)NC(=O)[C@H](CC(=O)O)NC(=O)[C@H](CO)NC(=O)[C@@H](NC(=O)[C@H](Cc1ccccc1)NC(=O)[C@@H](NC(=O)CNC(=O)[C@H](CCC(N)=O)NC(=O)[C@@H](CO)NC(=O)[C@@H](N)Cc1c[nH]cn1)[C@@H](C)O)[C@@H](C)O)C(=O)N[C@@H](CCCNC(=N)N)C(=O)N[C@@H](CCCNC(=N)N)C(=O)N[C@@H](C)C(=O)N[C@@H](CCC(N)=O)C(=O)N[C@@H](CC(=O)O)C(=O)N[C@@H](Cc1ccccc1)C(=O)N[C@H](C(=O)N[C@@H](CCC(N)=O)C(=O)N[C@@H](Cc1c[nH]c2ccccc12)C(=O)N[C@@H](CC(C)C)C(=O)N[C@@H](CC(C)C)C(=O)N[C@@H](CC(N)=O)C(=O)N[C@H](C(=O)NCC(=O)NCC(=O)N1CCC[C@H]1C(=O)N[C@@H](CO)C(=O)N[C@@H](CO)C(=O)NCC(=O)N[C@@H](C)C(=O)N1CCC[C@H]1C(=O)N1CCC[C@H]1C(=O)N1CCC[C@H]1C(=O)N[C@@H](CO)C(N)=O)[C@@H](C)O)C(C)C)C(=O)O  total cholesterol (rhesus monkey, female; subcutaneous, 20 µg/kg once daily, 28 days): 3.02 ± 0.45 mmol/L
CC[C@H](C)[C@H](NC(=O)[C@H](CCCCN)NC(=O)CNC(=O)[C@H](CC(C)C)NC(=O)[C@H](Cc1ccccc1)NC(=O)[C@H](CCCCN)NC(=O)[C@H](CO)NC(=O)[C@H](Cc1ccccc1)NC(=O)[C@H](Cc1c[nH]c2ccccc12)NC(=O)[C@H](CCC(N)=O)NC(=O)[C@@H](NC(=O)[C@H](Cc1ccccc1)NC(=O)CCCCCNC(=O)CN1CCN(CC(=O)O)CCN(CC(=O)O)CCN(CC(=O)O)CC1)C(C)C)C(=O)N[C@@H](CCC(=O)O)C(=O)N1CCC[C@H]1C(=O)N[C@@H](CC(=O)O)C(=O)N[C@H](C(=O)N[C@@H](CO)C(=O)N[C@@H](CCC(N)=O)C(=O)N[C@H](C(=O)N[C@@H](CCC(N)=O)C(=O)N[C@@H](CC(=O)O)C(=O)N1CCC[C@H]1C(=O)N[C@@H](CC(N)=O)C(=O)N[C@@H](CC(=O)O)C(=O)N[C@@H](CCC(N)=O)C(=O)N[C@@H](Cc1ccc(O)cc1)C(=O)N[C@@H](CCC(=O)O)C(=O)N1CCC[C@H]1C(=O)N[C@@H](Cc1ccccc1)C(=O)O)C(C)C)C(C)C [copper-64 labelled]  tissue uptake (C57BL/6 mice, male, tumour-free, kidneys; 24 h): 14.6 ± 3.3 %ID/g
